Measurements pooled from the literature.
± gives the spread as reported.

For `CCCCN1CCN(C(C)C(=O)Nc2c(C)csc2C(=O)OC)CC1` (stereo not drawn), the MRT(0-inf) was 1.57 h (rat (Sprague-Dawley, male), plasma; subcutaneous, 62.3 mmol/L).
`C=CC(=O)N1CCC(Oc2cc3c(Nc4ccc(Cl)c(Cl)c4F)ncnc3cc2OC)CC1` gave an MRT(0-inf) of 5.01 ± 0.69 h (Sprague-Dawley rat, male, plasma; oral, 2 mg/kg, added: vehicle pretreatment).
With `CCN(CC)Cc1ccc2cc(COC(=O)Nc3ccc(C(=O)NO)cc3)ccc2c1` the MRT(0-inf) was 7.76 ± 4.8 h (Sprague-Dawley rat, male, plasma; oral, 10 mg/kg).
For `C=CC(=O)N1CCC([C@@H]2CCNc3c(C(N)=O)c(-c4ccc(Oc5ccccc5)cc4)nn32)CC1`, the MRT(0-inf) was 5.64 ± 1.16 h (Sprague-Dawley rats, plasma; oral, 16 mg/kg, added: posaconazole 40 mg/kg).
The MRT(0-inf) of `Cc1cccc(CNC(=O)c2cn(CCNC(=O)c3ccccc3S)c3cc4c(cc3c2=O)OC(F)(F)O4)n1` is reported as 4.09 ± 0.62 h (Sprague-Dawley rat, male, whole blood; intravenous, 5 mg/kg of parent compound).
`O=C1CC[C@H](N2Cc3cc(N4CCN(CC5CCN(c6ccc([C@@H]7c8ccc(O)cc8CC[C@@H]7c7ccccc7)cc6)CC5)CC4)ccc3C2=O)C(=O)N1` has an MRT(0-inf) of 3.04 ± 0.29 h (measured: parent compound; Sprague-Dawley rat, male, fed, plasma; intravenous, 5 mg/kg).
The MRT(0-inf) of `CC[C@@H]([C@H](C)O)n1ncn(-c2ccc(N3CCN(c4ccc(OC[C@@H]5CO[C@@](Cn6cncn6)(c6ccc(F)cc6F)C5)cc4)CC3)cc2)c1=O` is reported as 15.7 ± 10.9 h (Sprague-Dawley rats, plasma; oral, 40 mg/kg, added: zanubrutinib 16 mg/kg).
`Cc1cccc(CNC(=O)c2cn(CCNC(=O)c3ccccc3Sc3c([N+](=O)[O-])ncn3C)c3cc4c(cc3c2=O)OC(F)(F)O4)n1` has an MRT(0-inf) of 9.29 h (Sprague-Dawley rat, male, whole blood; intramuscular, 30 mg/kg of parent drug).
`CCc1cc(C(=O)NC)c2nccc(N3CCc4c(cc(Cn5ccnc5)cc4-c4cn(C)nc4C(F)(F)F)C3=O)c2c1` gave an MRT(0-inf) of 3.9 h (Sprague Dawley rat, male, plasma; oral, 100 mg/kg once daily, 7 days, toxicokinetic satellite group).

For quick reference, copied from above:
`O=C1CC[C@H](N2Cc3cc(N4CCN(CC5CCN(c6ccc([C@@H]7c8ccc(O)cc8CC[C@@H]7c7ccccc7)cc6)CC5)CC4)ccc3C2=O)C(=O)N1` has an MRT(0-inf) of 3.04 ± 0.29 h (measured: parent compound; Sprague-Dawley rat, male, fed, plasma; intravenous, 5 mg/kg).
